Experimental data gathered from unrelated publications.
Numbered parts are unrelated; each lists some results of a single study. Positions count from the first letter of the parent shown.

Series 1 — target: CCNE2, cyclin fold, Cln2 fusion (human); technique: yeast growth competition, sequencing; sample: yeast; notes: weak parent motif; baseline: not given; reading: higher = stronger binding; measurement: normalised enrichment score
Starting sequence: PKN2 docking peptide (human); VSAVQKLDFSDTM
T12Q: -0.329
D11S: 0.144
S10Y: 0.513
V4F: -0.0751
F9H: -0.321
A3S: -0.244
K6V: 0.0348
V4G: -0.131
M13I: 0.408
S2K: 0.109
F9V: -0.675
V1N: 0.627
F9D: 0.179
S2H: -0.0638
T12M: -0.511
V1E: -0.46
F9N: 0.414
L7F: 0.102
T12I: -0.177
S10V: 0.406
K6H: 0.272
S10G: 0.387
V4P: 0.486
M13R: 0.493
V4N: -0.738

Series 2 — technique: protein-binding microarray; form: double-stranded DNA, one strand shown; sample: in vitro; concentration: 2200 nM top; notes: 60-bp whole probe; with: salmon DNA 0.4 mg/ml; baseline: random background probes; reading: higher = stronger binding; measurement: fitted relative affinity; all sequences stand within: GCCTAGCAC … GTCTTGATTCGCTTGACGCTGCTG
Target: Interferon regulatory factor 7, full length, phosphomimetic (IRF7, Homo sapiens, UniProt Q92985, residues 1-503, S471D/S472D/S475D/S476D/S477D/S483D/S484D/S487D)
Target sequence (chain): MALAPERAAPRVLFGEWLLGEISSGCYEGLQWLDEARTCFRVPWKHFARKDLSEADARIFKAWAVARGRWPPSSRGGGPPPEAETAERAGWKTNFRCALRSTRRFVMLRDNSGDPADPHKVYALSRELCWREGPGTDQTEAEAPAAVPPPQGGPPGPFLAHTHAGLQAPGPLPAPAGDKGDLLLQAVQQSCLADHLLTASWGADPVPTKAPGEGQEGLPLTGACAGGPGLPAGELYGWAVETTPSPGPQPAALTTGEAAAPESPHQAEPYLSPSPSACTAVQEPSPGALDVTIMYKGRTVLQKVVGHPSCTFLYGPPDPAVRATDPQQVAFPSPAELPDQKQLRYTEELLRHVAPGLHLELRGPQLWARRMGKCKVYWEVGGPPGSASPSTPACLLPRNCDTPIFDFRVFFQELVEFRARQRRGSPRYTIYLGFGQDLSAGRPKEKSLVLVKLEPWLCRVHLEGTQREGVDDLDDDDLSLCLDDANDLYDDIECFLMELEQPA
TCATCTTGTTCTCTCTGACTGTGCTAG: 2.15 z-score
GACGGTTTCGCCTATCGGGACGTGCTA: 3.61 z-score
GACGAGCTCAGTCTCGAGACGTGCTAG: -0.222 z-score
TTAGGACTGCTTATCCTTTTGTGCTAG: 0.562 z-score
TTAGTACTGGGGTTTCGGTTAGTGCTA: 3.54 z-score
GTCGATTTCAGTCTCGAGACGTGCTAG: 1.66 z-score
GATGATTTCGGGTATCGAGACGTGCTA: 2.87 z-score
TTGTGTCAACTTTCTCTGCTCGTGCTA: 0.918 z-score
TTGGGTTTCGGTTCCGGTTAGTGCTAG: 9.98 z-score
GAAGGTATCGGGTTTCGGGACGTGCTA: 1.89 z-score
TTAGGATTCGGTTCCGGTTAGTGCTAG: 3.52 z-score
TCATTTTTCTGAACCATACTGTGCTAG: 2 z-score
TTAGGTCTCCTGATCCTTTAGTGCTAG: 0.304 z-score
CACCCTTGGAAGTATGACTCTGTGCTA: 0.337 z-score
GACGGACTGGACACAGGGGACGTGCTA: -0.989 z-score

Series 3 — target: HLF, bZIP domain (human); technique: DHFR protein complementation; sample: yeast; baseline: wild-type JUN-FOS pair; reading: higher = stronger binding; measurement: binding fitness
Notes: single substitutions, most at no-binding floor
Starting sequence: JUN, bZIP domain (human); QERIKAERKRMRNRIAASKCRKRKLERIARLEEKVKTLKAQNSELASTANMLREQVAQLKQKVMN; partner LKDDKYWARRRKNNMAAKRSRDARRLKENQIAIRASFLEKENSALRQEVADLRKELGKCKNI
Q55S: -1.33 natural log
K36Q: -1.52 natural log
K36M: -1.27 natural log
V35C: -1.33 natural log
E33P: -1.45 natural log
K36A: -1.4 natural log
K39C: -1.3 natural log
T37F: -1.39 natural log
T48W: -1.47 natural log
S43A: -1.34 natural log
T48F: -1.54 natural log
M51F: -1.37 natural log
A49M: -1.48 natural log

Series 4 — technique: protein binding microarray; form: double-stranded DNA, one strand shown; sample: in vitro; concentration: not given; baseline: not given; reading: higher = stronger binding; measurement: E-score
Target: Histone acetyltransferase KAT6A, winged helix 1, GST fusion (KAT6A, Homo sapiens, UniProt Q92794, residues 1-85)
Notes: 8-mer, flanks averaged, mean of 2 arrays, mostly near background
Target sequence (chain): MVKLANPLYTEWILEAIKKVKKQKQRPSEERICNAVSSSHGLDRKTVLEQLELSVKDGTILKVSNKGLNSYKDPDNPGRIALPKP
ATGTCCTC: -0.13
GCAACGGC: 0.334
CAGTGAGC: 0.0161
TGAGTGAA: -0.216
CGCTACAC: 0.22
CCATAAGC: 0.0552
ATCTCCAT: -0.245
CTTAATAC: -0.0724
CATTGAAG: -0.107
CCTTGCAC: -0.131
ACTCTCAT: -0.147
AAAGCGAG: 0.0734
CGCACATA: 0.178
GTCTGCGA: -0.0782
ATTCGAAG: -0.152
CAAACAGG: -0.19
CTACTAAG: 0.177
ATACAGCC: 0.0159
CACGAATA: -0.192
ACGGTCAC: 0.12
CTCGGGTA: -0.015
AATACCCA: -0.314
GCCGAAAA: 0.148
ATGGCAAT: -0.163
CACAACCA: -0.0665

Series 5 — technique: DHFR PCA, deep sequencing; sample: yeast; with: (+)-ABA 0.39 µM; baseline: wild-type fitted maximum; reading: higher = stronger binding; measurement: relative binding score
Target: ABI1, truncated, D143A, DHFR fusion (Arabidopsis thaliana)
Notes: methotrexate growth selection, single substitutions
Starting sequence: PYL1, truncated, DHFR fusion (Arabidopsis thaliana); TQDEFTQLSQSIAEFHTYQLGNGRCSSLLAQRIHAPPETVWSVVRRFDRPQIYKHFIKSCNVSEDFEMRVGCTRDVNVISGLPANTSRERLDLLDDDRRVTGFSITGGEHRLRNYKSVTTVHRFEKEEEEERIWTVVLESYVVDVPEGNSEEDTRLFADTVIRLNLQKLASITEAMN
L20I: 52.3%
N149Y: 16.7%
I33S: -0.656%
R163F: -31.4%
G21W: 6.35%
V121K: -4%
V70W: 7.34%
K126H: 56.4%
R69C: 31.5%
T6Q: 58.4%
K58W: -5.84%
L156S: 23.2%
Y18P: 18.9%
T73C: 31.7%
D3I: 21.6%

Repeated from above (series 1):
M13I: 0.408
S2K: 0.109
F9V: -0.675
V1N: 0.627
F9D: 0.179
S2H: -0.0638
T12M: -0.511
V1E: -0.46
F9N: 0.414
L7F: 0.102
T12I: -0.177
S10V: 0.406
K6H: 0.272
S10G: 0.387
V4P: 0.486
